Measured values pooled from the literature.
Lines come from different studies, so protocols differ. Numbers after ± are the reported error.
FGFR4: Fibroblast growth factor receptor 4 (FGFR4, Homo sapiens, UniProt P22455)
UniProt P22455, sequence (whole entry, looked up): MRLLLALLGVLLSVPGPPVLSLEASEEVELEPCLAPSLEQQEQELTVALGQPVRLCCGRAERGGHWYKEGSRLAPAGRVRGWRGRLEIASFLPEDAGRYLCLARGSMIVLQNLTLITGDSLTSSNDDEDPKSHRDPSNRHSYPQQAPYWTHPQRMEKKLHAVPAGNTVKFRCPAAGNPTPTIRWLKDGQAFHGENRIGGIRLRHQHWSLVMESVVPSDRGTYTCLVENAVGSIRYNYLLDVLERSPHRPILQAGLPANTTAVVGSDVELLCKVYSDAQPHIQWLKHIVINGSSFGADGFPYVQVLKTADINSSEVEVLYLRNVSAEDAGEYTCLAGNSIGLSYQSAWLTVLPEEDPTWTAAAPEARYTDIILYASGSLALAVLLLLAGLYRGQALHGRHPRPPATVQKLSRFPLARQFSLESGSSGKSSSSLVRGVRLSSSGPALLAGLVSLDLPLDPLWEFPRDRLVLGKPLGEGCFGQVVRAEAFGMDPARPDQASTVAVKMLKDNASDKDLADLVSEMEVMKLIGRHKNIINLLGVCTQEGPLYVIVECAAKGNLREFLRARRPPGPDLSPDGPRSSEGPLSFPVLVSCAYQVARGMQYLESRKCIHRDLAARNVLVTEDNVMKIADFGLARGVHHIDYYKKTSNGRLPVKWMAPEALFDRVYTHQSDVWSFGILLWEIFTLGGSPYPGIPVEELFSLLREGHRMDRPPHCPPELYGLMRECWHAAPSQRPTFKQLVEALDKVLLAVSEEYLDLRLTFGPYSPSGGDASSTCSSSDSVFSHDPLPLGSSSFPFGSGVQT
PTGS1: Prostaglandin G/H synthase 1 (PTGS1, Homo sapiens, UniProt P23219)
UniProt P23219, sequence (whole entry, looked up): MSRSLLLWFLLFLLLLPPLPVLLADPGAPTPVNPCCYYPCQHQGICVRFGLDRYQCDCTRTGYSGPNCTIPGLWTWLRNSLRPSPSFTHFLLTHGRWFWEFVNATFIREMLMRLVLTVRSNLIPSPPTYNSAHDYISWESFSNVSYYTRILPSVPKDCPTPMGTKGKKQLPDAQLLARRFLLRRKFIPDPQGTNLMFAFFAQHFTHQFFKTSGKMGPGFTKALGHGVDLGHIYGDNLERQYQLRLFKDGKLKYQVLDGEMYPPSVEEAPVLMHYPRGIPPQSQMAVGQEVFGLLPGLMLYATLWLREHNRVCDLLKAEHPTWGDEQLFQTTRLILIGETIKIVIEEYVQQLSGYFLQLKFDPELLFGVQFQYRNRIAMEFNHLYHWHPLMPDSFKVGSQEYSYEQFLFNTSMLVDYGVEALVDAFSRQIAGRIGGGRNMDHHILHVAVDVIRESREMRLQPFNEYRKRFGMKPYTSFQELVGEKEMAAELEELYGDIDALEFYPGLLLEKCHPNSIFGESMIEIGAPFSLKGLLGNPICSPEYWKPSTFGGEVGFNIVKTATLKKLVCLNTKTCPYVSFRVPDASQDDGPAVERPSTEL
UniProt P47811, sequence (whole entry, looked up): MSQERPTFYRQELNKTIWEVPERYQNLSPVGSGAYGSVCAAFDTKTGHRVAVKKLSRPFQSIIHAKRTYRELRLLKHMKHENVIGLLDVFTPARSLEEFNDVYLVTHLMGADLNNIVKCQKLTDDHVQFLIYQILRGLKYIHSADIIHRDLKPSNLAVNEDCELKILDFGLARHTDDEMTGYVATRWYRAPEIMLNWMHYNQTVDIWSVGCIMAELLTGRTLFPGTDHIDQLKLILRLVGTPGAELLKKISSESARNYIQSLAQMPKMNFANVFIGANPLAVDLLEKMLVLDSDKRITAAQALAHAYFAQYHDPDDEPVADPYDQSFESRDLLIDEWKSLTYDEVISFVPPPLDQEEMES
UniProt P30989, sequence (whole entry, looked up): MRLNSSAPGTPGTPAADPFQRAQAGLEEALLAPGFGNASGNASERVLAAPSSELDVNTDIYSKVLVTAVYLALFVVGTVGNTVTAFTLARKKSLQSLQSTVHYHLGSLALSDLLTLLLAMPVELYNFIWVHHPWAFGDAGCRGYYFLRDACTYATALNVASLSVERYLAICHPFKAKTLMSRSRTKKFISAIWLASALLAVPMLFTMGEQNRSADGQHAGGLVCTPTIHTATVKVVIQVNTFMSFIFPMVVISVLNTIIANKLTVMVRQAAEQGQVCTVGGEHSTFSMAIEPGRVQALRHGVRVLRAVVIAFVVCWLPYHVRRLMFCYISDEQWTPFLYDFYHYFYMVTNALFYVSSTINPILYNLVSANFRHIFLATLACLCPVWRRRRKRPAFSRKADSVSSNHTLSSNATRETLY
UniProt P08170, sequence (whole entry, looked up): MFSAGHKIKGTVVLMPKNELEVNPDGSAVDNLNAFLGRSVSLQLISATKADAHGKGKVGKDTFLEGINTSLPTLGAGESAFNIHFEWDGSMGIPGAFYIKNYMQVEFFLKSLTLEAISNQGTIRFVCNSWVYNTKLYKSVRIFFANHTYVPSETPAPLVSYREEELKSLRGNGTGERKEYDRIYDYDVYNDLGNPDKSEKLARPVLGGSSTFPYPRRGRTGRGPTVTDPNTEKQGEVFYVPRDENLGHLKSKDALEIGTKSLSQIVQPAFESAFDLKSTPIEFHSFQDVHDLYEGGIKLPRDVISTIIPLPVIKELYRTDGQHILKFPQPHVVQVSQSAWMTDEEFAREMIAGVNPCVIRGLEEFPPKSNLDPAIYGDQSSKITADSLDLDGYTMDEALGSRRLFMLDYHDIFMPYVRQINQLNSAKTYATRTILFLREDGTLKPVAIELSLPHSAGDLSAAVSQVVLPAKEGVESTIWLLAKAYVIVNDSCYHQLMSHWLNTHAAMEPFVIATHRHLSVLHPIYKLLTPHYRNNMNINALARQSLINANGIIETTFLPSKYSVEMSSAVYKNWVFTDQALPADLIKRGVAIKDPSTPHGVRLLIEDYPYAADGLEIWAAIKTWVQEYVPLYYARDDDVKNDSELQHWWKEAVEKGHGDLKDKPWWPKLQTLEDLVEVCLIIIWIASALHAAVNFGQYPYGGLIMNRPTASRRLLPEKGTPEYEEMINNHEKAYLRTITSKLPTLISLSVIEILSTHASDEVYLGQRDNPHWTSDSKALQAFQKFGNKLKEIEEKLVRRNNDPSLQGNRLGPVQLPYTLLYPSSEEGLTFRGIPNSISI
UniProt P51812, sequence (whole entry, unmodified, looked up): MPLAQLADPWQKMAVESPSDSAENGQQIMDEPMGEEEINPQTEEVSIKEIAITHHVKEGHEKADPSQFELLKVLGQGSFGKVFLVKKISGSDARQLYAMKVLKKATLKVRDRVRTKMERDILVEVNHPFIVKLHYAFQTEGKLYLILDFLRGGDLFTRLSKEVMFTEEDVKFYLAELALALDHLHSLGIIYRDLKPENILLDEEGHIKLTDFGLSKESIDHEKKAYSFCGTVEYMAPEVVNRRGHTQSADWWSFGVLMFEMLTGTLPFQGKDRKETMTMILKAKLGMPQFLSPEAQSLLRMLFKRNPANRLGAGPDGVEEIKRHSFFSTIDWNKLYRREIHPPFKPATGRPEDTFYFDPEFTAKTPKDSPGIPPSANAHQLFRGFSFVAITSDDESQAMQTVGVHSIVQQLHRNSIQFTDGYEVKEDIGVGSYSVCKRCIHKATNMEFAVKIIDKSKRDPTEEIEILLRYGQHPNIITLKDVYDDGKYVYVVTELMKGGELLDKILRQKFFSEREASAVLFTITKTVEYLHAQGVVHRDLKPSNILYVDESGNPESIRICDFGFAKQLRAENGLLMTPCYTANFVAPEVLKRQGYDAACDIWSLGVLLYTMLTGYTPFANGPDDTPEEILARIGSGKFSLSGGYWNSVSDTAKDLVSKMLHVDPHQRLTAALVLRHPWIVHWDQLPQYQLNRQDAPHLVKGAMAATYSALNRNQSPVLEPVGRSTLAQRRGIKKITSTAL
UniProt Q04771, sequence (whole entry, looked up): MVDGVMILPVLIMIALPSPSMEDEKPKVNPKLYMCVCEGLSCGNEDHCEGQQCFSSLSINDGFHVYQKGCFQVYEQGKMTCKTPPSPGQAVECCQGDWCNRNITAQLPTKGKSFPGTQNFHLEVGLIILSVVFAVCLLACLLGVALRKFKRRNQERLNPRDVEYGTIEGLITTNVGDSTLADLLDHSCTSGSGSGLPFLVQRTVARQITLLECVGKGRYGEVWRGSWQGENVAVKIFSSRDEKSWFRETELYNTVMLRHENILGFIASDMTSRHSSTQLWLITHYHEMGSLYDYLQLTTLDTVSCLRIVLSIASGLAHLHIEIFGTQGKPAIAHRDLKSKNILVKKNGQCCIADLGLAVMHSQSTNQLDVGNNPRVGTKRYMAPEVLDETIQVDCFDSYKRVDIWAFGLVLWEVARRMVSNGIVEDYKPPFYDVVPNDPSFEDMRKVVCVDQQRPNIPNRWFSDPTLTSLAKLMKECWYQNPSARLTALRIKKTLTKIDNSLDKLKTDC
UniProt P07947, sequence (whole entry, looked up): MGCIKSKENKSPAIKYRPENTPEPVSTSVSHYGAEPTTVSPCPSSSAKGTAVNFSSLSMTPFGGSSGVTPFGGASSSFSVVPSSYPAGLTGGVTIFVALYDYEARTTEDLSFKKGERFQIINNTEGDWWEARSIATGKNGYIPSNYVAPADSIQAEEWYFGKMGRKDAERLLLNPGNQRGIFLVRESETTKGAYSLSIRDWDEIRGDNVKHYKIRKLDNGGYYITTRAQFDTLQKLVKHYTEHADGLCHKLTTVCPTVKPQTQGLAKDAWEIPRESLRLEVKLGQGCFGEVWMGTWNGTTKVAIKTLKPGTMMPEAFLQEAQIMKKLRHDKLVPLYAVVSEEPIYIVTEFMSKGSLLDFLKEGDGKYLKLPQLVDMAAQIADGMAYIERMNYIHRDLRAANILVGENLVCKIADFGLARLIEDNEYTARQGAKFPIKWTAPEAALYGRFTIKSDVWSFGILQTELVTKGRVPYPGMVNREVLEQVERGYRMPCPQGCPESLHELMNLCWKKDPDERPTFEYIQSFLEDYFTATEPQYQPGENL

| Structure (SMILES) | target | assay | system | conditions | IC50 [µM] |
| --- | --- | --- | --- | --- | --- |
| CC(=O)NCCN(CC(=O)NCCN(CC(=O)NCCN(CC(=O)NCCC(N)=O)C(=O)[C@@H](N)Cc1ccccc1)C(=O)[C@@H](N)CCCNC(=N)N)C(=O)[C@@H](N)Cc1ccccc1 | HIV-1 TAR RNA | Tat/TAR complex displacement, FRET | – | room temperature, with: 10 nM Tat/TAR complex | 599 ± 5 |
| CC(C)NCc1ccc(C[C@@H]2NC(=O)[C@@H](Cc3c[nH]c4ccccc34)NC(=O)[C@H](Cc3ccccc3)NC(=O)[C@@H](NC(=O)[C@H](N)Cc3ccccc3)CSSC[C@@H](C(=O)N[C@H](C(N)=O)[C@@H](C)O)NC(=O)[C@H](Cc3ccc(O)c(I)c3)NC2=O)cc1 | Somatostatin receptor type 3 (SSTR3, Homo sapiens, UniProt P32745) | ligand displacement, radioligand | – | cell membranes | 0.864 |
| COC(=O)[C@@H](CS)N1C(=O)c2ccc(N(C)C)cc2C1=O | Metallo-beta-lactamase type 2 (Serratia marcescens, UniProt P52699) | enzyme activity, inhibitor | – | pH 7.0, with: chromacef 25 µM | 0.032 ± 0.005 |
| CN(C)CCn1nc(-c2cc(Br)ccc2F)nc2c(=O)n(C)c(=O)nc1-2 | Trypanothione reductase (TPR, Trypanosoma brucei brucei, UniProt P39051) | inhibitor, DTNB-coupled colourimetric | – | with: substrate at Km | > 100 |
| Cc1cc(O)cc(C)c1C[C@H](NC(=O)[C@@H]1CCCN1C(=O)[C@H](CCCNC(=N)N)NC(=O)[C@H](CCCNC(=N)N)N(C)C(=O)[C@@H]1CCCN1C(=O)[C@H](CCCCN)NC(=O)CCNC(=O)CN1CCN(CC(=O)O)CCN(CC(=O)O)CCN(CC(=O)O)CC1)C(=O)N[C@H](C(=O)N[C@@H](CC(C)C)C(=O)O)C(C)(C)C | Neurotensin receptor type 1 (NTSR1, Homo sapiens, UniProt P30989) | ligand displacement, radioligand | – | – | 0.0272 |
| O=[N+]([O-])c1ccc(Cn2cc(Cn3cc(CO)nn3)nn2)cc1 | Cytohesin-3, PH domain (Cyth3, Mus musculus, UniProt O08967) | PI(3,4,5)P3 binding, competitive SPR | – | PH domain 500 nM | 0.789 ± 0.035 |
| COc1cc2ncnc(Nc3ccc(Oc4ccccc4)cc3C)c2cc1OC | RAF proto-oncogene serine/threonine-protein kinase (RAF1, Homo sapiens, UniProt P04049, Y340D/Y341D) | inhibitor, ATP-biotin probe competition | – | – | > 10 |
| CC(=O)N[C@H]1[C@@H](OC(=O)NCCCOCCOCCOCCCNC(=O)O[C@H]2O[C@H](CNC(=O)OCCOCCOCCOCCOCCOCCOCCOCCOC(=O)NC[C@H]3O[C@H](OC(=O)NCCCOCCOCCOCCCNC(=O)O[C@H]4O[C@H](CO)[C@@H](O)[C@H](O)[C@H]4NC(C)=O)[C@H](NC(C)=O)[C@@H](O)[C@@H]3O)[C@@H](O)[C@H](O)[C@H]2NC(C)=O)O[C@H](CO)[C@@H](O)[C@@H]1O | wheat germ agglutinin (Triticum vulgaris) | binding to immobilised GlcNAc, inhibitor, enzyme-linked lectin | – | with: HRP-labelled WGA | 0.037 |
| Cc1ccc(C(=O)/C=C/c2ccc(N(C)CCO)cc2)o1 | Seed linoleate 13S-lipoxygenase-1 (Glycine max, UniProt P08170) | enzyme activity, inhibitor, absorbance | – | – | 45.1 |
| CC(C)CCOc1cc(C[n+]2cn(CCC(C)C)c3ccccc32)c(OCCC(C)C)c2ccccc12 | Mitogen-activated protein kinase 7 (MAPK7, Homo sapiens, UniProt Q13164) | enzyme activity, inhibitor, FRET | – | – | 8.8 |
| CCn1cnc(C[C@H](NC(=O)c2cnc(C)cn2)C(=O)N2CCC[C@H]2C(N)=O)c1 | Thyrotropin-releasing hormone receptor (Mus musculus, UniProt P21761) | ligand displacement, radioligand | – | – | > 50 |
| O=C1Nc2ccc(-c3ccc(C(=O)N4CCOCC4)cc3)cc2/C1=C/c1ccc(N2CCNCC2)cc1 | FGFR4 | enzyme activity, inhibitor | – | – | 28.1 |
| CC[C@H](C)[C@H](NC(=O)[C@H](CCC(=O)O)NC(=O)[C@H](CCCCN)NC(=O)[C@H](CC(C)C)NC(=O)[C@H](CCCCNC(=O)[C@H](CC(C)C)NC(=O)[C@H](CCCNC(=N)N)NC(=O)[C@H](Cc1c[nH]cn1)NC(=O)[C@H](Cc1c[nH]cn1)NC(=O)[C@H](Cc1c[nH]cn1)NC(=O)[C@@H](N)CO)NC(=O)[C@H](CC(C)C)NC(=O)[C@H](CCCNC(=N)N)NC(=O)[C@H](Cc1c[nH]cn1)NC(=O)[C@H](Cc1c[nH]cn1)NC(=O)[C@H](Cc1c[nH]cn1)NC(=O)[C@@H](N)CO)C(=O)N[C@@H](C)C(=O)N[C@@H](CC(N)=O)C(=O)N[C@@H](CO)C(=O)N1CCC[C@H]1C(=O)N[C@H](C(=O)N[C@@H](CCC(N)=O)C(=O)N[C@@H](Cc1ccccc1)C(=O)N[C@@H](Cc1c[nH]c2ccccc12)C(=O)N[C@@H](CCCNC(=N)N)C(=O)N[C@@H](CCSC)C(=O)N[C@H](C(=O)N[C@@H](C)C(=O)N[C@@H](CCCNC(=N)N)C(=O)N[C@@H](CC(N)=O)C(=O)N[C@H](C(=O)N[C@@H](CC(C)C)C(=O)NCC(=O)N[C@@H](CC(N)=O)C(=O)NCC(=O)N[C@@H](C)C(=O)N[C@@H](CCCCN)C(=O)N[C@@H](CCC(N)=O)C(=O)N[C@@H](CO)C(=O)N[C@@H](CC(C)C)C(=O)N[C@@H](CC(N)=O)C(=O)N[C@H](C(=O)N[C@@H](CCC(=O)O)C(=O)N[C@@H](Cc1c[nH]cn1)C(=O)N[C@@H](C)C(=O)O)[C@@H](C)CC)[C@@H](C)O)C(C)C)[C@@H](C)O | Programmed cell death protein 1, with PD-L1 (PDCD1, Homo sapiens, UniProt Q15116) | PD-L1 binding to Jurkat T cells, inhibitor, flow cytometry | stimulated Jurkat | 1 h, 4 °C, with: human PD-L1 2 µg/mL | 2.58 |
| Cc1cc(NC(=O)c2cccc(-n3cc(NC(=O)Nc4ccccc4Cl)cn3)c2)ccn1 | Mitogen-activated protein kinase 14 (MAPK14, Homo sapiens, UniProt Q16539) | enzyme activity, inhibitor | – | – | > 10 |
| CCc1nc2sc(C(=O)c3ccc(C(C)C)cc3)c(N)c2c2c1CCCC2 | ADP-ribosyl cyclase/cyclic ADP-ribose hydrolase 1 (CD38, Homo sapiens, UniProt P28907) | enzyme activity, inhibitor, fluorescence | – | – | 36.3 |
| C[C@](C(=O)NC1CCC(F)(F)CC1)(c1cncnc1)N(C(=O)[C@H](F)Cl)c1ccc(OC(F)(F)F)cc1 | Cytochrome P450 2C9 (CYP2C9, Homo sapiens, UniProt P11712) | enzyme activity, inhibitor | – | 10 (unit not given) | > 50 |
| O=C(c1ccc(F)c([N+](=O)[O-])c1)N1CCN(c2ccccc2F)CC1 | SEC14 (Saccharomyces cerevisiae, UniProt P24280) | enzyme activity, inhibitor, radiometric | – | – | 36.8 |
| COc1ccc(-c2cc(C(F)(F)F)n3nc(N)nc3n2)cc1OC | Sensor histidine protein kinase/phosphatase WalK (walK, Streptococcus pneumoniae, UniProt Q8DPL8) | enzyme activity, ATP-competitive inhibitor | – | – | 26.4 |
| COc1cc(F)cc(-c2nc3ccc(C(=O)NCCCN(C)C)cc3n2C2CCC2)c1 | Activin receptor type-1 (ACVR1, Homo sapiens, UniProt Q04771) | target engagement in cells, BRET | – | – | 10.7 |
| CC(C)C[C@H](NC(=O)[C@H](CC(N)=O)NC(=O)[C@H](CC(C)C)NC(=O)[C@@H](NC(=O)[C@@H](NC(=O)[C@@H]1CCCN1C(=O)[C@H](CCCNC(=N)N)NC(=O)[C@H](CCCCN)NC(=O)[C@@H]1CCCN1)[C@@H](C)O)[C@@H](C)O)C(=O)N[C@@H](Cc1ccccc1)C(=O)NCCCCCC(=O)N[C@@H](CCCNC(=N)N)C(=O)N[C@@H](CCCNC(=N)N)C(=O)N[C@@H](CCCNC(=N)N)C(=O)N[C@@H](CCC(N)=O)C(=O)N[C@@H](CCCNC(=N)N)C(=O)N[C@@H](CCCNC(=N)N)C(=O)N[C@@H](CCCCN)C(=O)N[C@@H](CCCCN)C(=O)N[C@@H](CCCNC(=N)N)C(=O)NCC(N)=O | Mitogen-activated protein kinase 14 (Mapk14, Mus musculus, UniProt P47811) | enzyme activity, inhibitor, radiometric | – | pH 7.5 | 13.7 |
| CNC(=O)c1cc(C)ccc1NC(=O)c1ccc(-c2c(C)ccc3[nH]ncc23)c(C)c1 | Ephrin type-B receptor 2 (EPHB2, Homo sapiens, UniProt P29323) | target engagement in cells, BRET | – | – | 0.294 |
| N#C/C(=C\c1cc(Cn2cncn2)cs1)C(N)=O | Ribosomal protein S6 kinase alpha-3, C-terminal kinase domain (RPS6KA3, Homo sapiens, UniProt P51812, T493M) | kinase activity, inhibitor | – | with: 0.1 mM ATP | 27.9 |
| C=C(NC(=O)C(=C)NC(=O)c1csc(C2=NC3c4csc(n4)C4NC(=O)c5csc(n5)C(C(C)(O)C(C)O)NC(=O)C5CSC(=N5)C(=CC)NC(=O)C(C(C)O)NC(=O)c5csc(n5)C3(CC2)NC(=O)C(CCC(N)=O)NC(=O)C(=C)NC(=O)C(C)NC(=O)C(C(C)CC)NC2C=Cc3c(C(C)O)cc(nc3C2O)C(=O)OC4C)n1)C(N)=O (centres unmarked) | Proteasome subunit beta type-7, in 20S proteasome (PSMB7, Homo sapiens, UniProt Q99436) | trypsin-like activity, inhibitor | purified 20S proteasome | 15 min preincubation, 37 °C, with: Boc-Leu-Arg-Arg-AMC substrate | > 10.7 |
| C=C(C)C(=O)Nc1ccc(-c2c(-c3ccc(Oc4nccc(C)n4)cc3)c3c(N)ncnc3n2C)cc1 | FGFR4 | Caliper mobility shift | – | 30 min preincubation, with: 100 µM ATP | 31 |
| COc1ccc(C(=O)CCc2cc(C(CCc3ccc(O)cc3OC)c3ccc(O)cc3)c(O)cc2OC)cc1 (racemic) | PTGS1 | enzyme activity, inhibitor | – | – | > 1 |
| CNC(=O)C1CCN(c2ccccc2NC(=O)c2ccc(-c3cc(O)ccc3C)cc2)CC1 | Tyrosine-protein kinase Yes (YES1, Homo sapiens, UniProt P07947) | target engagement, NanoBRET | intact cells | – | > 50 |
| Fc1ccc(NCc2cn(-c3ccccc3)nc2-c2ccc(OCc3ccccc3)cc2)cc1 | PTGS1 | enzyme activity, inhibitor, absorbance | – | – | 139 |
| Cc1ccc2nc(-c3cc(-c4cnn(C5CCNCC5)c4)cnc3N)oc2c1O | Tyrosine-protein kinase JAK2 (JAK2, Homo sapiens, UniProt O60674) | enzyme activity, inhibitor, TR-FRET | – | – | 2.1 |
| Cc1nnc(-n2[nH]cc(-c3cccnc3)c2=O)s1 | Prolyl hydroxylase EGLN2 (EGLN2, Homo sapiens, UniProt Q96KS0) | enzyme activity, inhibitor, europium VBC binding | – | 10 µM FeSO4, 2 mM ascorbate, with: 20 µM 2-oxoglutarate | 4.3 |

Excerpt of the above:
| Structure (SMILES) | target | assay | system | conditions | IC50 [µM] |
| --- | --- | --- | --- | --- | --- |
| CC(=O)N[C@H]1[C@@H](OC(=O)NCCCOCCOCCOCCCNC(=O)O[C@H]2O[C@H](CNC(=O)OCCOCCOCCOCCOCCOCCOCCOCCOC(=O)NC[C@H]3O[C@H](OC(=O)NCCCOCCOCCOCCCNC(=O)O[C@H]4O[C@H](CO)[C@@H](O)[C@H](O)[C@H]4NC(C)=O)[C@H](NC(C)=O)[C@@H](O)[C@@H]3O)[C@@H](O)[C@H](O)[C@H]2NC(C)=O)O[C@H](CO)[C@@H](O)[C@@H]1O | wheat germ agglutinin (Triticum vulgaris) | binding to immobilised GlcNAc, inhibitor, enzyme-linked lectin | – | with: HRP-labelled WGA | 0.037 |
| CC(C)CCOc1cc(C[n+]2cn(CCC(C)C)c3ccccc32)c(OCCC(C)C)c2ccccc12 | Mitogen-activated protein kinase 7 (MAPK7, Homo sapiens, UniProt Q13164) | enzyme activity, inhibitor, FRET | – | – | 8.8 |
